{"data": "Experimental data of several laboratories", "note": "Parts stem from different laboratories: compare values within a part only. Changes are numbered by the printed parent chain."}
{"data": "Study 1", "target": "Interferon regulatory factor 3, full length, phosphomimetic (IRF3, Homo sapiens, UniProt Q14653, residues 1-427, S386D/S396D/S398D/S402D/T404D/S405D)", "technique": "protein-binding microarray", "form": "double-stranded DNA, one strand shown", "medium": "in vitro", "tested at": "2540 nM top", "setting": "60-bp whole probe", "added": "salmon DNA 0.4 mg/ml", "baseline": "random background probes", "reading": "higher = stronger binding", "constant ends, left off below": "GCCTAGCAC … GTCTTGATTCGCTTGACGCTGCTG", "chain of UniProt Q14653 (whole entry, unmodified, looked up)": "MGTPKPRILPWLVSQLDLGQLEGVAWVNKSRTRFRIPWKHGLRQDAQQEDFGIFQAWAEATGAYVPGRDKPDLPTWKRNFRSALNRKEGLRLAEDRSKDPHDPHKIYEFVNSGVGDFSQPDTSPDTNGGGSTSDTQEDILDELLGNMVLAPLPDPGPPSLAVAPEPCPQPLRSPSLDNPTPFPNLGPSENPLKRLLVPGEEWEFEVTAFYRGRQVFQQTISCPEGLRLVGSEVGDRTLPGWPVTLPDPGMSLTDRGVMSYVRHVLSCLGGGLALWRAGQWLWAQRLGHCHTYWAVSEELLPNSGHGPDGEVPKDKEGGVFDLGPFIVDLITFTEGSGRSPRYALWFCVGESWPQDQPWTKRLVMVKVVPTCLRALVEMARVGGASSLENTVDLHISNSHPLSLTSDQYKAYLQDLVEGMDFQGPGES"}
{"Oligonucleotide": "TTAGATATCTGACTGGATTAGTGCTAG", "fitted relative affinity": "-0.238 z-score"}
{"Oligonucleotide": "AAATGTGTTAGAAACAGGTTGTGCTAG", "fitted relative affinity": "0.216 z-score"}
{"Oligonucleotide": "TTTCATTGCTGCCCTCAGAAAGTGCTA", "fitted relative affinity": "1.78 z-score"}
{"Oligonucleotide": "GACGGTCTCGGGTTCGGGACGTGCTAG", "fitted relative affinity": "0.318 z-score"}
{"Oligonucleotide": "TTAGGTTTCGCGTTTCGGTTAGTGCTA", "fitted relative affinity": "4.15 z-score"}
{"Oligonucleotide": "GACGGTTTTCTTTTCCTGACGTGCTAG", "fitted relative affinity": "5.33 z-score"}
{"Oligonucleotide": "TTAGATTTCGGGAATCGATTAGTGCTA", "fitted relative affinity": "0.731 z-score"}
{"Oligonucleotide": "TTAGATTTCAGACGGGATTAGTGCTAG", "fitted relative affinity": "-0.059 z-score"}
{"data": "Study 2", "target": "OGT, full length, His-tagged (human)", "technique": "phage display, sequencing", "medium": "in vitro", "tested at": "1 µg OGT", "setting": "single substitutions, 15-mer displayed peptide, unchanged parent 6.14", "baseline": "input library", "reading": "higher = stronger binding", "starting sequence": "peptide; VAYPNSYMPKYQIST"}
{"Substitution": "VAYPDSYMPKYQIST [N5D]", "fold enrichment [fold]": 6.44}
{"Substitution": "VAHPNSYMPKYQIST [Y3H]", "fold enrichment [fold]": 0.406}
{"Substitution": "VAYPNSQMPKYQIST [Y7Q]", "fold enrichment [fold]": 1.1}
{"Substitution": "VAFPNSYMPKYQIST [Y3F]", "fold enrichment [fold]": 6.72}
{"Substitution": "VAYPNSTMPKYQIST [Y7T]", "fold enrichment [fold]": 0.544}
{"Substitution": "VAYPNFYMPKYQIST [S6F]", "fold enrichment [fold]": 6.38}
{"Substitution": "VANPNSYMPKYQIST [Y3N]", "fold enrichment [fold]": 4.49}
{"Substitution": "VAYPQSYMPKYQIST [N5Q]", "fold enrichment [fold]": 6.73}
{"data": "Study 3", "target": "Prothrombin, mature alpha-thrombin (F2, Homo sapiens, UniProt P00734)", "technique": "aptamer microarray, sandwich", "form": "DNA with 2'F-ANA", "medium": "in vitro", "tested at": "200 nM", "setting": "whole 15-mer aptamer, many near background", "added": "Cy3 exosite-II aptamer, 400 nM", "reading": "higher = stronger binding", "oligonucleotide": "GGTTGGTGTGGTTGG"}
{"Modification": "2'F-ANA at 3 8 11 13", "mean fluorescence intensity [a.u.]": 951}
{"Modification": "2'F-ANA at 4 6 8 9 10 13 15", "mean fluorescence intensity [a.u.]": 82.5}
{"Modification": "2'F-ANA at 1 2 3 6 7 8 9 10", "mean fluorescence intensity [a.u.]": 136}
{"Modification": "2'F-ANA at 3 4 5 6 8 10 12", "mean fluorescence intensity [a.u.]": 55.6}
{"Modification": "2'F-ANA at 3 4 5 6 13 14 15", "mean fluorescence intensity [a.u.]": 50.9}
{"Modification": "2'F-ANA at 5 7 11 13", "mean fluorescence intensity [a.u.]": 93.4}
{"Modification": "2'F-ANA at 1 3 4 14", "mean fluorescence intensity [a.u.]": 74.5}
{"Modification": "2'F-ANA at 3 5 7 9 11 12 14", "mean fluorescence intensity [a.u.]": 57.1}
{"data": "Single results of other studies", "starting sequence": "PafA, mature enzyme, eGFP fusion (Elizabethkingia meningoseptica, UniProt Q9KJX5); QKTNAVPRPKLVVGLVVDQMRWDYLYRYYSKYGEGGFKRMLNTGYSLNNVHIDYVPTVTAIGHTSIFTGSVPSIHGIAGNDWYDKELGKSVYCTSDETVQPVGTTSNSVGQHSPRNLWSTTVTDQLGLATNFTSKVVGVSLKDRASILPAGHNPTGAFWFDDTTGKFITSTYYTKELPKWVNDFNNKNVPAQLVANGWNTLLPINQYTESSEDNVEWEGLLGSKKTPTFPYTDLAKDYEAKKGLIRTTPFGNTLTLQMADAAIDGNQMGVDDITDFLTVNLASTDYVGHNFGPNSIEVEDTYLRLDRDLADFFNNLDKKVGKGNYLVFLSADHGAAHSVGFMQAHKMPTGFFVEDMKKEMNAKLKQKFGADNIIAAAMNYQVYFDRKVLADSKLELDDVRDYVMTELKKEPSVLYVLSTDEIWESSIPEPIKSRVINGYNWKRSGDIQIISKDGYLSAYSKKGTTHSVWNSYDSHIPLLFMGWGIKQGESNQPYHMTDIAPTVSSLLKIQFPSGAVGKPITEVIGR"}
{"Substitution": "S46V", "target": "tungstate, free oxyanion", "assay": "microfluidic competitive inhibition", "test system": "in vitro, cell-free expressed", "conditions": "not given, derived from inhibition constants, unchanged parent 2230 nM", "how to read": "lower = stronger binding", "endpoint": "oxyanion analog dissociation constant", "result": "2.58 µM"}
{"note": "A few entries again (study 3):"}
{"Modification": "2'F-ANA at 3 4 5 6 13 14 15", "mean fluorescence intensity [a.u.]": 50.9}
{"Modification": "2'F-ANA at 5 7 11 13", "mean fluorescence intensity [a.u.]": 93.4}
{"Modification": "2'F-ANA at 1 3 4 14", "mean fluorescence intensity [a.u.]": 74.5}
